Measured values from different studies.
Lines come from different studies, so protocols differ. “And” joins repeats or separate records; there may be more than shown.
Cell line: SK-MEL-2

Structure (SMILES) | assay | conditions | how to read | measurement | result
COc1ccc(OC)c(-c2nc3ccc(-c4nc5ccc(N6CCN(C)CC6)cc5[nH]4)cc3[nH]2)c1 | SRB | 10 µM, 48 h | – | growth percent | 109%
CCOC(=O)CSc1nc(-c2ccc(Cl)cc2)c2c(NC(=O)c3ccccc3)nnc-2[nH]1 | SRB | 10 µM, NCI60 single-dose screen | relative to: untreated | cell growth | 107%
C#C[C@@]1(O)[C@@H](CO)O[C@@H](n2cc(I)c3c(N)ncnc32)[C@@H]1O | SRB | NCI-60 screen | – | TGI | 1590 nM and 1950 nM
Cn1cncc1C1=CN(c2ncnc3[nH]cnc23)CCS1 | – | melanoma cell line | – | TGI | 43700 nM
N#Cc1c(Oc2ccc(F)c(NC(=O)Cc3cccc(C(F)(F)F)c3)c2)ccc2nc(NC(=O)C3CC3)sc12 | ERK phosphorylation, inhibitor, Western blot, measured: p-ERK/total ERK | 1 h | – | IC50 | 3310 nM
S=C([S][Au-][P+](CCCCCC[P+]([Au-][S]C(=S)n1cccn1)(c1ccccc1)c1ccccc1)(c1ccccc1)c1ccccc1)n1cccn1 | cell growth, NCI-60 screen | melanoma | – | log10 TGI | -5.09
C#C[C@@]1(O)[C@@H](CO)O[C@@H](n2cc(Cl)c3c(N)ncnc32)[C@@H]1O | SRB | NCI-60 screen | – | TGI | 268 nM and 481 nM
Cc1n[nH]c2nc(-c3ccc(Cl)cc3)c3c(NC(=O)c4ccccc4)nnc-3n12 | SRB | 10 µM, NCI60 single-dose screen | relative to: untreated | cell growth | 115%
CCN(CC)c1ccc(C=NNC(=O)CSc2nc3ccccc3c(=O)n2Cc2ccc(S(N)(=O)=O)cc2)c(O)c1 | NCI five-dose screen | – | – | TGI | > 100000 nM
CCCCN1CCN(c2ccc3nc(-c4ccc5nc(-c6cc(OC)ccc6OC)[nH]c5c4)[nH]c3c2)CC1 | SRB | 10 µM, 48 h | – | growth percent | 111%
C#C[C@@]1(O)[C@@H](CO)O[C@@H](n2cc(Br)c3c(N)ncnc32)[C@@H]1O | SRB | NCI-60 screen | – | TGI | 430 nM and 758 nM
CCCCN1CCN(c2ccc3[nH]c(-c4ccc5[nH]c(-c6ccc(C(F)(F)F)cc6)nc5c4)nc3c2)CC1 | SRB | 10 µM, 48 h | – | growth percent | -47.5%
O=C(Nc1nnc2[nH]c(=S)[nH]c(-c3ccc(Cl)cc3)c1-2)c1ccccc1 | SRB | 10 µM, NCI60 single-dose screen | relative to: untreated | cell growth | 108%
CCCCN1CCN(c2ccc3[nH]c(-c4ccc5[nH]c(-c6ccc(OCC)cc6)nc5c4)nc3c2)CC1 | SRB | 10 µM, 48 h | – | growth percent | 86.6%
Cc1cc(C)n(-c2nc(-c3ccc(Cl)cc3)c3c(NC(=O)c4ccccc4)nnc-3[nH]2)n1 | SRB | 10 µM, NCI60 single-dose screen | relative to: untreated | cell growth | 86.4%
CCCN1CCN(c2ccc3[nH]c(-c4ccc5[nH]c(-c6ccc(C(F)(F)F)cc6)nc5c4)nc3c2)CC1 | SRB | 10 µM, 48 h | – | growth percent | 7.45%
COC(=O)N[C@@H](C)CNc1nccc(-c2cn(C(C)C)nc2-c2cc(Cl)cc(NS(C)(=O)=O)c2F)n1 | ERK phosphorylation, activator, Western blot, measured: p-ERK/total ERK | 1 h, concentration for 200% induction | – | EC200 | 11 nM

Excerpt of the above:
Structure (SMILES) | assay | conditions | how to read | measurement | result
COC(=O)N[C@@H](C)CNc1nccc(-c2cn(C(C)C)nc2-c2cc(Cl)cc(NS(C)(=O)=O)c2F)n1 | ERK phosphorylation, activator, Western blot, measured: p-ERK/total ERK | 1 h, concentration for 200% induction | – | EC200 | 11 nM
